Measurements pooled from the literature.
Each line is one published result; not all experiments were run side by side. “And” joins repeats or separate records; there may be more than shown. ± gives the spread as reported.

SMILES | cell line | assay | system | conditions | how to read | viability
CC(C)C[C@@H](NC(=O)CNC(=O)[C@@H](CCCCN)NC(=O)[C@@H](CC(C)C)NC(=O)[C@@H](CCCCN)NC(=O)[C@@H](CCCNC(=N)N)NC(=O)[C@@H](CC(C)C)NC(=O)[C@@H](CC(C)C)NC(=O)[C@@H](CCCNC(=N)N)NC(=O)[C@H](N)CCCNC(=N)N)C(=O)N[C@H](CCCCN)C(=O)N[C@H](CCCCN)C(=O)N[C@H](Cc1ccc(O)cc1)C(=O)N[C@H](CC(C)C)C(=O)N[C@H](Cc1ccc(O)cc1)C(=O)N[C@H](Cc1ccccc1)C(=O)N[C@H](CCCCN)C(=O)N[C@H](CC(C)C)C(=O)N[C@H](CCC(N)=O)C(=O)N[C@H](CC(C)C)C(=O)N[C@H](CC(C)C)C(=O)N[C@H](CCCCN)C(=O)N[C@H](CCCCN)C(N)=O | HCT-116 | MTT | – | 32 µM, 48 h | – | ~70%
O=c1cc(-c2ccc(O)cc2)oc2c([C@@H]3O[C@H](CO)[C@@H](O)[C@H](O)[C@H]3O)c(O)cc(O)c12 | Caco-2 | CCK-8 | – | 2.5 µM, 24 h | – | 117%
CCSc1nc2ccccc2n1Cc1nnc(-c2ccc([N+](=O)[O-])cc2)o1 | neutrophils | – | fresh heparinized human blood | 200 µg/mL, 30 min | – | 13.1 ± 7.3%
O=c1c(O[C@@H]2O[C@H](CO)[C@H](O)[C@H](O)[C@H]2O)c(-c2ccc(O)c(O)c2)oc2cc(O)cc(O)c12 | Caco-2 | CCK-8 | – | 20 µM, 24 h | – | 85.2%
CCSc1nc2ccccc2n1Cc1nnc(-c2ccccc2O)o1 | neutrophils | – | fresh heparinized human blood | 200 µg/mL, 30 min | – | 86.5 ± 7.4%
Cc1cc(-c2ccccc2)nc(SCC(=O)Nc2ccccc2)c1C#N | MDA-MB-231 | MTT | – | 100 µM, 72 h | – | 31 ± 3%
CCSc1nc2ccccc2n1Cc1nnc(-c2ccc(N(CC)CC)cc2)o1 | neutrophils | – | fresh heparinized human blood | 200 µg/mL, 30 min | – | 21.8 ± 9.1%
Cc1cc(C(F)(F)F)c2c(N)c(C(=O)Nc3cccnc3)sc2n1 | MDA-MB-231 | MTT | – | 100 µM, 72 h | – | 49 ± 6%
Nc1ncnc2c1ncn2[C@@H]1O[C@@H]2COP(=O)(O)O[C@H]3[C@@H](O)[C@H](n4cnc5c(=O)[nH]cnc54)O[C@@H]3COP(=O)(O)O[C@H]2[C@H]1O | HFF-1 | – | – | 10 µg/mL | – | 101%
COCCOCCOCCNC(=O)c1sc2nc(C)cc(C)c2c1N | MDA-MB-231 | MTT | – | 100 µM, 72 h | – | 69 ± 12%
CCSc1nc2ccccc2n1Cc1nnc(-c2ccc(C)o2)o1 | neutrophils | – | fresh heparinized human blood | 200 µg/mL, 30 min | – | 73.1 ± 5.2%
Cc1cccc(NC(=O)CSc2nc(C)cc(-c3ccccc3)c2C#N)n1 | MDA-MB-231 | MTT | – | 100 µM, 72 h | – | 17 ± 2%
CCSc1nc2ccccc2n1Cc1nnc(-c2ccc(F)c(OC)c2)o1 | neutrophils | – | fresh heparinized human blood | 200 µg/mL, 30 min | – | 56.3 ± 3.1%
CC(C)c1ccc(C(=O)c2c(N)c(C(N)=O)c3ccccn23)cc1 | THP-1-derived macrophages | – | – | 10 µM, 48 h | – | 94.7% and 96.4% and 96.7%
C[C@@H]1O[C@@H](OC[C@H]2O[C@@H](Oc3c(-c4ccc(O)c(O)c4)oc4cc(O)cc(O)c4c3=O)[C@H](O)[C@@H](O)[C@@H]2O)[C@H](O)[C@H](O)[C@H]1O | Caco-2 | CCK-8 | – | 0.625 µM, 24 h | – | 87%
CCSc1nc2ccccc2n1Cc1nnc(-c2cccc(O)c2O)o1 | neutrophils | – | fresh heparinized human blood | 200 µg/mL, 30 min | – | 88.6 ± 7.1%
COc1cc(CNC(=O)c2sc3nc(C)cc(C)c3c2N)cc(OC)c1OC | MDA-MB-231 | MTT | – | 100 µM, 72 h | – | 27 ± 3%
CCOc1cccc(-c2nnc(Cn3c(SCC)nc4ccccc43)o2)c1O | neutrophils | – | fresh heparinized human blood | 200 µg/mL, 30 min | – | 79.2 ± 0.5%
Cc1cc(C(F)(F)F)c2c(N)c(C(=O)NCc3ccccc3)sc2n1 | MDA-MB-231 | MTT | – | 100 µM, 72 h | – | 73 ± 9%
Cn1cc2cc(C(F)(F)c3nnc4ccc(-c5cnn(C6CC6)c5)nn34)c(F)cc2n1 | MKN-45 | CCK-8 | – | 0.0125 µM, 72 h | reference: untreated | 44% and 43% and 52.4%
CCOC(=O)c1ccc(NC(=O)CSc2nc(C)cc(-c3ccccc3)c2C#N)cc1 | MDA-MB-231 | MTT | – | 100 µM, 72 h | – | 18 ± 4%
CC[C@H](C)[C@H](NC(=O)[C@H](CC(C)C)NC(=O)[C@H](CCCNC(=N)N)NC(=O)[C@@H](N)CCCNC(=N)N)C(=O)N[C@@H](CCCNC(=N)N)C(=O)N[C@@H](CCCCN)C(=O)N[C@@H](CC(C)C)C(=O)N[C@@H](CCCCN)C(=O)NCC(=O)N[C@@H](CC(C)C)C(=O)N[C@@H](CCCCN)C(=O)N[C@@H](CCCCN)C(=O)N[C@@H](Cc1ccc(O)cc1)C(=O)N[C@@H](CC(C)C)C(=O)N[C@@H](Cc1ccc(O)cc1)C(=O)N[C@@H](Cc1ccccc1)C(=O)N[C@@H](CCCCN)C(=O)N[C@@H](CC(C)C)C(=O)N[C@@H](CCC(N)=O)C(=O)N[C@@H](CC(C)C)C(=O)N[C@@H](CC(C)C)C(=O)N[C@@H](CCCCN)C(=O)N[C@@H](CCCCN)C(N)=O | HCT-116 | MTT | – | 64 µM, 48 h | – | ~70%
Cc1cc(C(F)(F)F)c2c(N)c(C(=O)Nc3ccccc3)sc2n1 | MDA-MB-231 | MTT | – | 100 µM, 72 h | – | 52 ± 6%
CCSc1nc2ccccc2n1Cc1nnc(-c2ccc(C)cc2)o1 | neutrophils | – | fresh heparinized human blood | 200 µg/mL, 30 min | – | 79.4 ± 3.1%

A few entries again:
SMILES | cell line | assay | system | conditions | how to read | viability
Cc1cccc(NC(=O)CSc2nc(C)cc(-c3ccccc3)c2C#N)n1 | MDA-MB-231 | MTT | – | 100 µM, 72 h | – | 17 ± 2%
CCSc1nc2ccccc2n1Cc1nnc(-c2ccc(F)c(OC)c2)o1 | neutrophils | – | fresh heparinized human blood | 200 µg/mL, 30 min | – | 56.3 ± 3.1%
CC(C)c1ccc(C(=O)c2c(N)c(C(N)=O)c3ccccn23)cc1 | THP-1-derived macrophages | – | – | 10 µM, 48 h | – | 94.7% and 96.4% and 96.7%
C[C@@H]1O[C@@H](OC[C@H]2O[C@@H](Oc3c(-c4ccc(O)c(O)c4)oc4cc(O)cc(O)c4c3=O)[C@H](O)[C@@H](O)[C@@H]2O)[C@H](O)[C@H](O)[C@H]1O | Caco-2 | CCK-8 | – | 0.625 µM, 24 h | – | 87%
